Published values of several laboratories.
A part holds a random share of what one study measured.

Block 1
Target: Histone acetyltransferase KAT6A, winged helix 2, GST fusion (KAT6A, Homo sapiens, UniProt Q92794, residues 85-181)
Technique: protein binding microarray
Form: double-stranded DNA, one strand shown
Sample: in vitro
Tested at: not given
Notes: 8-mer, flanks averaged, mean of 2 arrays, mostly near background
Reference: not given
Direction: higher = stronger binding
Measurement: E-score
Residues (chain): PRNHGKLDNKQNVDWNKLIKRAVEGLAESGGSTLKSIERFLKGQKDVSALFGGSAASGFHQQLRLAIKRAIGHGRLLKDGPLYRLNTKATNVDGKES
TATTATGA: -0.144
GGTGTAAA: -0.168
AGGAGTGG: -0.0819
CCAATTAC: -0.0967
ATAAGAAG: 0.106

Block 2
Target: Sal-like protein 4, full length isoform B (SALL4, Homo sapiens, UniProt Q9UJQ4-2, residues 1-616)
Technique: universal PBM
Form: double-stranded DNA, one strand shown
Sample: in vitro
Tested at: not given
Notes: 8-mer, flanks averaged, mean of replicates
Direction: higher = stronger binding
Measurement: E-score
AACGGAAC: -0.191
CAAGGCGA: -0.193
ACCCCGAA: -0.0667
GGTCTTGA: -0.224

Block 3
Target: Centromere-binding protein 1, full length, His-tagged (CBF1, Saccharomyces cerevisiae, UniProt P17106, residues 1-351)
UniProt P17106, sequence (whole entry, looked up): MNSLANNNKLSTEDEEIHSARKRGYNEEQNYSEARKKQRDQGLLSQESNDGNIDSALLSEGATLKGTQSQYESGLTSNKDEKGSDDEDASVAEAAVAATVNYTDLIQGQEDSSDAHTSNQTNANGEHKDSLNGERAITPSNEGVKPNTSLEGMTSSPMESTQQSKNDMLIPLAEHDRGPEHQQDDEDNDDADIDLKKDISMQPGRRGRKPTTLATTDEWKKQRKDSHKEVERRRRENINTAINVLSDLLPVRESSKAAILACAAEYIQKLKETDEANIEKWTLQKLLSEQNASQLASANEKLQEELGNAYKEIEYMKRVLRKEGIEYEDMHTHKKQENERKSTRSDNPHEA
Technique: competition protein-binding microarray
Form: double-stranded DNA, one strand shown
Sample: in vitro
Tested at: 2 µM
Notes: whole 60-bp probe, lowest competitor level
Added: Pho4 competitor, 0.05 µM
Direction: higher = stronger binding
Measurement: fluorescence intensity
Shared flanks, not repeated: … GTCTTGATTCGCTTGACGCTGCTG
ATTGTTGATGCTCTTGGCATGACAGAGGCGACGCCG: 52 a.u.
GTAAAACTTTATTAGCTCGTGCTTTCGCGGCTCAGA: 111 a.u.
AAATTACTAAGTTGTGGCGTGGGTGACGCCGTATGA: 61.5 a.u.
CAGCGGATTCCCGAGCACATGGAGTCGCTGAACGAC: 80.7 a.u.
AAATTACTAAGTTGGGTAGTGGGTGACGCCGTATGA: 51.4 a.u.
ATCTAATTTTGCGACCAAGTAGTTCTTAAACAAGTC: 70.3 a.u.

Mixed results
PhoQ, residues 284 288 289 292 302 303 SIHMAM  fold induction (PhoP, residues 12 14 15 18 19 SQCLL (Escherichia coli, UniProt P23836); Sort-seq, refers to: YFP reporter; E. coli; PhoQ-PhoP variant library, added: 10 µM Mg2+; reference: high Mg2+ state, higher = stronger signaling): 12.6

Some of these lines once more (block 1):
TATTATGA: -0.144
GGTGTAAA: -0.168
